Experimental data pooled from the literature.
Each line is one published result; not all experiments were run side by side. ± marks the error that the study gave.
NMBR: Neuromedin-B receptor (NMBR, Homo sapiens, UniProt P28336)
Sequence of UniProt P28336 (whole entry, looked up): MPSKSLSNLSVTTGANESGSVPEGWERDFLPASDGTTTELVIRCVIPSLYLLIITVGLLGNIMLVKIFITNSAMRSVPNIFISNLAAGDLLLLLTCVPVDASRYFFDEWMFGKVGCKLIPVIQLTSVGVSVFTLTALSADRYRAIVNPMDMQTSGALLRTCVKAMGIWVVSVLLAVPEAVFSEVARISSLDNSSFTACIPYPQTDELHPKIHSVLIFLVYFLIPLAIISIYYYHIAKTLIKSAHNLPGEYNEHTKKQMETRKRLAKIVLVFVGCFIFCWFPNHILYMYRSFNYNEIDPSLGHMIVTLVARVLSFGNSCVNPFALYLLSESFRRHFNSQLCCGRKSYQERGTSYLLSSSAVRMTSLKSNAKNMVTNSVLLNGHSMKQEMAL
LPAR2: Lysophosphatidic acid receptor 2 (LPAR2, Homo sapiens, UniProt Q9HBW0)
Sequence of UniProt Q9HBW0 (whole entry, looked up): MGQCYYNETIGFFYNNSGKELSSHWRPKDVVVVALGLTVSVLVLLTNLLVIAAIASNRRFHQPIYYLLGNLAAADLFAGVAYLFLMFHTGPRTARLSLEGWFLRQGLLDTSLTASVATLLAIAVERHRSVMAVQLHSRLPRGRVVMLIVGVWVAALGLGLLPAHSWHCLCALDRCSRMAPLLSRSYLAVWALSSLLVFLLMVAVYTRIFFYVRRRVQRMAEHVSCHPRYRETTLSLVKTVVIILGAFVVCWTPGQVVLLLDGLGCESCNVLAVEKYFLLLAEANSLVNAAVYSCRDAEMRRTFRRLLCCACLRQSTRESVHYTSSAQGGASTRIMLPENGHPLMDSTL
FFAR1: Free fatty acid receptor 1 (FFAR1, Homo sapiens, UniProt O14842)
Sequence of UniProt O14842 (whole entry, looked up): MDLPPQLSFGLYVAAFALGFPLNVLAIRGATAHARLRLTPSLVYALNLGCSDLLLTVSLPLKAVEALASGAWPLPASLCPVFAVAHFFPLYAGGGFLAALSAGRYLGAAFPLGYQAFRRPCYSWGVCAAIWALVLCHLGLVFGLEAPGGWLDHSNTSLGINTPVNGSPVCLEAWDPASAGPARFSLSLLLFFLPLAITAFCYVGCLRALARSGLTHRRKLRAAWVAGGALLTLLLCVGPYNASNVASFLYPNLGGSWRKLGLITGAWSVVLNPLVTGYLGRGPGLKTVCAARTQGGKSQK
SCTR: Secretin receptor (SCTR, Homo sapiens, UniProt P47872)
Sequence of UniProt P47872 (whole entry, looked up): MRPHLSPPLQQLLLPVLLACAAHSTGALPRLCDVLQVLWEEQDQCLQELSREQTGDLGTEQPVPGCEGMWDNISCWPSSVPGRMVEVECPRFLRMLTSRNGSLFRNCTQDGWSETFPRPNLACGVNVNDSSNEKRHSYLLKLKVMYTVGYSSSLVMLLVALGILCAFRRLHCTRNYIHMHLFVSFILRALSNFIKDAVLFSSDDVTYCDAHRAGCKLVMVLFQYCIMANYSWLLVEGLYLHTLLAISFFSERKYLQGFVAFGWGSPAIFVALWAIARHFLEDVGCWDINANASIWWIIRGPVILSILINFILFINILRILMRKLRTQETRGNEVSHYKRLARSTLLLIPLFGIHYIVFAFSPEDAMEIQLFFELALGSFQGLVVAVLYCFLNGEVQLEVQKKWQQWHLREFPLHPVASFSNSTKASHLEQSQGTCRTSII
Sequence of UniProt P21917 (whole entry, looked up): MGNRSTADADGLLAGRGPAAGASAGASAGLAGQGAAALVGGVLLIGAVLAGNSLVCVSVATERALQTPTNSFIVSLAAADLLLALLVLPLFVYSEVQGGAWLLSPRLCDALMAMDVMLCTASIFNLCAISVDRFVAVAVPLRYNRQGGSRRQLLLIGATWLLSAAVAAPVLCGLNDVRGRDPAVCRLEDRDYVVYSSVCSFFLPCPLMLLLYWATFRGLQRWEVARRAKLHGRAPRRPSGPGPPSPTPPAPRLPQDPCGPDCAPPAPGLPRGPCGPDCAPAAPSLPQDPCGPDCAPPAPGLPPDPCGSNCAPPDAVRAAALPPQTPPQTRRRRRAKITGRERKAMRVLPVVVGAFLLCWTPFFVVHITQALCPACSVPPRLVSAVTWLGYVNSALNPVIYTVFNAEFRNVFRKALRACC
Sequence of UniProt P18507 (whole entry, looked up): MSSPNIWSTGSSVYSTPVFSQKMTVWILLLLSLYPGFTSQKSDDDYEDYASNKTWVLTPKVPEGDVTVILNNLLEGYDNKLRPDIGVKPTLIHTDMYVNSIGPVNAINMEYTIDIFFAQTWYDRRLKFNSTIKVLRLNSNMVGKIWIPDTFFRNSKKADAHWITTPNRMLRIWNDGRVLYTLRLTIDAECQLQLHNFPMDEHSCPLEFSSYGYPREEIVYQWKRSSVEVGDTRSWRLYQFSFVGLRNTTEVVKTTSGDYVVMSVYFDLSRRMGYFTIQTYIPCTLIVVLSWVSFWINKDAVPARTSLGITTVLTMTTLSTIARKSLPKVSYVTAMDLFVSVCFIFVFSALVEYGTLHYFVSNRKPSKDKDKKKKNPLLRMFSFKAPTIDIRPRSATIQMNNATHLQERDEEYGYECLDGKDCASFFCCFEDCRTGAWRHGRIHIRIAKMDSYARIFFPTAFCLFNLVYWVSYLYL
Sequence of UniProt P28335 (whole entry, looked up): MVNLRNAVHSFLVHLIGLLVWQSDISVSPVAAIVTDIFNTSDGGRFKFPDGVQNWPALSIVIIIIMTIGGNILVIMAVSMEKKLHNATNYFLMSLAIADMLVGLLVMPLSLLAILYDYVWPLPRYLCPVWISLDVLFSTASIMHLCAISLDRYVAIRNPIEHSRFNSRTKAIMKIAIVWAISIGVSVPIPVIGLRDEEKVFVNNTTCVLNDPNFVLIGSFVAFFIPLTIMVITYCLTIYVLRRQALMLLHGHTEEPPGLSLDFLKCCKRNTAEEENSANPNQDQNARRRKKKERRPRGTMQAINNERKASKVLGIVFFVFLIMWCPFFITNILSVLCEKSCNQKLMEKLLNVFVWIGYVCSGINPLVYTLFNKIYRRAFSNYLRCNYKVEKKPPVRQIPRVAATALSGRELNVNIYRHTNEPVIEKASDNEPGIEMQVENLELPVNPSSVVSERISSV
Sequence of UniProt O43526 (whole entry, looked up): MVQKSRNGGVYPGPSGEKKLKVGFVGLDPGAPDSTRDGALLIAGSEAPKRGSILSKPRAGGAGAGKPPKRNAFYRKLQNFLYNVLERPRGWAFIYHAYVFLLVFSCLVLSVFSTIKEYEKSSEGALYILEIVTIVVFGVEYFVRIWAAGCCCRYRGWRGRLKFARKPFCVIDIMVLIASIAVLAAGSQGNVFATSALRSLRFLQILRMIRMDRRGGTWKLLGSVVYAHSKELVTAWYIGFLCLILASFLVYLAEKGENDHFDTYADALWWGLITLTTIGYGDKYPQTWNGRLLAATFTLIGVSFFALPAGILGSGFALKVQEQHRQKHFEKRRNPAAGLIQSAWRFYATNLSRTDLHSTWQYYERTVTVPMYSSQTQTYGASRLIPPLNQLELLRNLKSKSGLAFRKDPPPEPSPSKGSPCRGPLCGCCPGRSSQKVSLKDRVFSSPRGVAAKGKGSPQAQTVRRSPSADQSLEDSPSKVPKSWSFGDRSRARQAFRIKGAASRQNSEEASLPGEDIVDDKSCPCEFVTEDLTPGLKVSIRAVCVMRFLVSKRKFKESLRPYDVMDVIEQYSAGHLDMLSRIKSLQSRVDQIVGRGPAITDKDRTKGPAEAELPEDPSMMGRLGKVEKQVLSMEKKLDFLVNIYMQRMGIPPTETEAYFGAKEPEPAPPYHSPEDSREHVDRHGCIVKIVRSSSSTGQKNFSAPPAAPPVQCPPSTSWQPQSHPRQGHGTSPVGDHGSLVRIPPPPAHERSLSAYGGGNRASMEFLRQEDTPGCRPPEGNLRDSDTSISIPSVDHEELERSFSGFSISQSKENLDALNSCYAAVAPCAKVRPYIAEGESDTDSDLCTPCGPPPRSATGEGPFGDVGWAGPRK
Sequence of UniProt Q96RI1 (whole entry, looked up): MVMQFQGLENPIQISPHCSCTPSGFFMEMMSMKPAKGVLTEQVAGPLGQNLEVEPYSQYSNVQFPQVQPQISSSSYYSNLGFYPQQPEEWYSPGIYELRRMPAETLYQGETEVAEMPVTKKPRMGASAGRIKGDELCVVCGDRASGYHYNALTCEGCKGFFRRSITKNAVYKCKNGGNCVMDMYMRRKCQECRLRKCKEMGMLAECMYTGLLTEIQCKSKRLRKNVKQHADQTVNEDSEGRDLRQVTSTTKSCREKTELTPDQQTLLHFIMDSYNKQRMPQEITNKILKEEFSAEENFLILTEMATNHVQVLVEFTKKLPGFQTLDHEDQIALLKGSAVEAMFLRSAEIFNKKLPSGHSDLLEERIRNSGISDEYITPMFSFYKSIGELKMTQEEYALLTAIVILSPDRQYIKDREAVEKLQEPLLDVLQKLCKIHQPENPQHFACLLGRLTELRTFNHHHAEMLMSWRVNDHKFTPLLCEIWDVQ
Sequence of UniProt P54646 (whole entry, unmodified, looked up): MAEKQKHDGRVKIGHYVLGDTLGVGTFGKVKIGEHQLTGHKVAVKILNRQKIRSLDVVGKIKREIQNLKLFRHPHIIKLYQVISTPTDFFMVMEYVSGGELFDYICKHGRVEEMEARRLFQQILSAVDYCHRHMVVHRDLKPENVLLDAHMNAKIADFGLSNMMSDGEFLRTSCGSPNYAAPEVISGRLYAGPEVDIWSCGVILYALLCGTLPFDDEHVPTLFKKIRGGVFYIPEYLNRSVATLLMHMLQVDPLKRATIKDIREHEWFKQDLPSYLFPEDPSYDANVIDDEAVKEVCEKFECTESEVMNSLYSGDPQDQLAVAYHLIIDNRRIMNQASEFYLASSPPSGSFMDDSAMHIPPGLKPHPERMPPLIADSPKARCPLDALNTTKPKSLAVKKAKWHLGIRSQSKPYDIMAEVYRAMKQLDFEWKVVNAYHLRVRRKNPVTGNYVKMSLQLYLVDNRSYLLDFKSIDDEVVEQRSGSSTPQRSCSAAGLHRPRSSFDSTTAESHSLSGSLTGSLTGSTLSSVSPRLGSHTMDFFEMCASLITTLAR

C[C@H]1CN(C2CC2)C[C@H]1NC(=O)c1cnc2c(F)ccc(F)c2c1  EC50 (D(4) dopamine receptor (DRD4, Homo sapiens, UniProt P21917); cAMP, agonist): 130 nM
CC1(C)CCOC1CN1CCOCC1Cc1c[nH]c2ccccc12 (stereo not shown)  EC50 (5-hydroxytryptamine receptor 2C (HTR2C, Homo sapiens, UniProt P28335)): 4370 nM
CCC(CC)N[C@H](Cc1ccccc1)C(=O)N[C@@H](CCC(N)=O)C(=O)N[C@@H](Cc1c[nH]c2ccccc12)C(=O)N[C@@H](C)C(=O)N[C@H](C(=O)N[C@H](C)C(=O)N[C@@H](Cc1c[nH]cn1)C(=O)N[C@@H](CC(C)C)C(=O)N[C@@H](CC(C)C)C(N)=O)C(C)C  EC50 (NMBR; inositol phosphate generation, agonist; NCI-H1299 (NMBR); 45 min, 37 °C): 912 ± 22 nM
CCCCCCCC/C=C\CCCCCCCC(=O)O[C@H]1CCCO[C@@H]1COP(=O)(O)S (stereo partly shown)  EC50 (LPAR2; G protein activation, agonist): 1400 nM
O=C1NC(=O)C(C2CCOc3cc(Oc4ccc(C(F)(F)F)cc4Cl)ccc32)S1 (stereo not shown)  EC50 (FFAR1; IP turnover, agonist; COS-7 transient): 12.6 nM
COc1ccc(-c2cc(C(F)(F)F)nc(SCC(=O)N(C)c3ccccc3)n2)cc1OC  EC50 (SCTR; increase of tracer binding, TR-FRET; HEK293 membranes; added: Fluo-Sec 6 nM): 4200 ± 2800 nM
CCCC[C@H](NC(=O)[C@H](Cc1ccccc1)NC(=O)[C@H](Cc1c[nH]cn1)NC(=O)CCNC(=O)[C@@H](NC(=O)[C@H](C)NC(=O)[C@H](Cc1c[nH]c2ccccc12)NC(=O)[C@H](CC(N)=O)NC(=O)[C@@H](Cc1ccc(O)cc1)NC(=O)[C@@H](CO)NC(=O)[C@H](CO)NC(=O)[C@H](N)CO)C(C)C)C(N)=O  EC50 (NMBR; inositol phosphate generation, agonist; BALB/3T3 expressing human NMBR; 45 min, 37 °C; reference: 1 µM neuromedin B): 1.82 ± 0.06 nM
CCCCOc1nc(N)c2[nH]c(=O)n(CCCN(CCCN3CCOCC3)Cc3cccc(CC(=O)O)c3)c2n1  EC50 (Toll-like receptor 8 (TLR8, Homo sapiens, UniProt Q9NR97); reporter gene, agonist): > 10000 nM
CC(C)C[C@@H]1NC(=O)[C@H](Cc2c[nH]cn2)NC(=O)[C@@H](C)NC(=O)[C@H](C(C)C)NC(=O)[C@H](C)NC(=O)[C@H](Cc2c[nH]c3ccccc23)NC(=O)[C@H](CCC(N)=O)NC(=O)[C@H](N)CSSC[C@@H](C(N)=O)NC1=O  EC50 (NMBR; inositol phosphate generation, agonist; NCI-H1299 expressing human NMBR; 45 min, 37 °C; reference: 1 µM neuromedin B): 1000 ± 12 nM
CC(C=O)Cc1ccc(C(C)(C)C)cc1 (stereo not shown)  EC50 (Olfactory receptor 10S1 (OR10S1, Homo sapiens, UniProt Q8NGN2); GFP reporter gene, agonist; yeast expressing OR10S1; 4 h, 1% DMSO): 129000 nM
CCCCCCCC/C=C\CCCCCCCC(=O)O[C@H]1C=CCO[C@H]1COP(=O)(O)S (stereo partly shown)  EC50 (LPAR2; G protein activation, agonist): 2000 nM
O=P(O)(O)O[C@@H]1[C@@H](O)[C@H](O)[C@H](O)[C@H](O)[C@H]1OP(=O)(O)O  EC50 (Inositol 1,4,5-trisphosphate-gated calcium channel ITPR1 (Itpr1, Rattus norvegicus, UniProt P29994); calcium release, agonist; DT40 (permeabilised, IP3R1 wild type)): 5010 nM
COc1ccc(-c2cc(C(F)(F)F)nc(NCc3cccnc3)n2)cc1OC  EC50 (SCTR; cAMP, agonist): 36000 nM
CCCCc1oc2ccc(NS(C)(=O)=O)cc2c1C(=O)c1ccc(OCCCN(CCCC)CCCC)cc1  EC50 (Bile acid receptor (NR1H4, Homo sapiens, UniProt Q96RI1); coactivator recruitment, agonist, TR-FRET): 26400 nM
Cc1ccc(Oc2nc3cc(-c4ccc5c(ccn5C)c4)c(Cl)cc3[nH]2)cc1C(=O)O  EC50 (PRKAA2/PRKAB1, with gamma1 subunit (Homo sapiens, UniProt P54646+Q9Y478, L166E); activator): 120 nM
CC=CC(CC(=O)O)c1ccc(OCc2ccc(-c3cc(OC)ccc3F)cc2)cc1 (stereo not shown)  EC50 (FFAR1; IP turnover, agonist; COS-7 transient): 50.1 nM
COc1ccc(-c2cc(C(F)(F)F)nc(SCCC(=O)Nc3cc(F)ccc3F)n2)cc1  EC50 (SCTR; increase of tracer binding, TR-FRET; HEK293 membranes; added: Fluo-Sec 6 nM): 400 ± 200 nM
CC(=O)[C@@]1(O)CC[C@H]2[C@@H]3CCC4=CC(=O)CC[C@]4(C)[C@H]3CC[C@@]21C  EC50 (ADGRG6 (Homo sapiens, UniProt Q86SQ4); cAMP, agonist, luciferase): 10 nM
COc1ccc(-c2cc(C(F)(F)F)nc(S(=O)(=O)CCCC(=O)Nc3ccccc3F)n2)cc1OC  EC50 (SCTR; cAMP, agonist): 24000 nM
CCCCCCCC/C=C\CCCCCCCC(=O)OC[C@@H]1OCCC[C@@H]1OP(=O)(O)S (stereo partly shown)  EC50 (LPAR2; G protein activation, agonist): 1700 nM
COc1ccccc1-c1cc(C(F)(F)F)nc(S(=O)(=O)CCCC(=O)Nc2ccn(Cc3ccc(C)cc3)n2)n1  EC50 (SCTR; increase of tracer binding, TR-FRET; HEK293 membranes; added: Fluo-Sec 6 nM): 6800 ± 10000 nM
Cc1cc(N/C=C(\C(=O)NC2CCC2)C(=O)c2ccc(Cl)cc2Cl)no1  EC50 (GABA-A receptor; alpha-1/beta-2/gamma-2 (Homo sapiens, UniProt P14867+P18507+P47870); GABA current potentiation, positive modulator, two-electrode voltage clamp; Xenopus laevis oocytes; 30 s preincubation, added: GABA EC10): 44 ± 3 nM
COc1ccc(CNc2nc(-c3ccc(OC)c(OC)c3)cc(C(F)(F)F)n2)cc1  EC50 (SCTR; cAMP, agonist): 42000 nM
COc1cccc(NC(=S)NNC(=O)C2CC2c2ccc(Cl)cc2)c1 (stereo not shown)  EC50 (Potassium voltage-gated channel subfamily KQT member 2 (KCNQ2, Homo sapiens, UniProt O43526); ion current, agonist, patch clamp): 4640 nM
COc1ccc(-c2cc(C(F)(F)F)nc(NCc3ccc(Cl)cc3)n2)cc1OC  EC50 (SCTR; increase of tracer binding, TR-FRET; HEK293 membranes; added: Fluo-Sec 6 nM): 3100 ± 2400 nM
NCCCC[C@H](N)C(=O)N[C@@H](CCCN=C(N)N)C(=O)N1CCC[C@H]1C(=O)N1CCC[C@H]1C(=O)NCC(=O)N[C@@H](Cc1ccccc1)C(=O)N[C@@H](CO)C(=O)N1CCC[C@H]1C(=O)N[C@@H](Cc1ccccc1)C(=O)N[C@@H](CCCN=C(N)N)C(=O)O  EC50 (B2 bradykinin receptor (BDKRB2, Homo sapiens, UniProt P30411); calcium signal, agonist, fluorescence): 0.78 nM
CSCC[C@H](NC(=O)[C@H](CC(C)C)NC(=O)[C@H](Cc1cnc[nH]1)NC(=O)CNC(=O)[C@@H](NC(=O)[C@H](C)NC(=O)[C@H](Cc1c[nH]c2ccccc12)NC(=O)[C@H](Cc1cnc[nH]1)NC(=O)[C@H](CC(N)=O)NC(=O)CN)C(C)C)C(N)=O  EC50 (NMBR; inositol phosphate generation, agonist; NCI-H1299 expressing human NMBR; 45 min, 37 °C; reference: 1 µM neuromedin B): 117 ± 2 nM
COc1ccc(-c2cc(C(F)(F)F)nc(S(=O)(=O)CCCC(=O)Nc3c(F)cc(F)cc3Br)n2)cc1OC  EC50 (SCTR; cAMP, agonist): 18000 nM

Excerpt of the above:
C[C@H]1CN(C2CC2)C[C@H]1NC(=O)c1cnc2c(F)ccc(F)c2c1  EC50 (D(4) dopamine receptor (DRD4, Homo sapiens, UniProt P21917); cAMP, agonist): 130 nM
